Published values collected from several papers.
Parts stem from different laboratories: compare values within a part only. Numbers after ± are the reported error.

Study 1
Compound: CNCc1ccc2c(c1)N(C(=O)OCc1c(F)c(F)c(F)c(F)c1F)[C@H](CNC(=N)N)[C@H]2NC(=O)C(=O)Nc1ccc(Cl)c(F)c1
Cell line: TZM-bl
Endpoint: IC80
organism = Human immunodeficiency virus 1; read-out = viral infection; technique = Env pseudovirus; strain = 6535.3 clade B; value = 46 nM
organism = Human immunodeficiency virus 1; read-out = viral infection; technique = Env pseudovirus; strain = 6244_13_B5_4576 clade B T/F; value = 1160 nM
organism = Human immunodeficiency virus 1; read-out = viral infection; technique = Env pseudovirus; strain = SC422661.8 clade B; value = 138 nM
organism = HIV-1; read-out = pseudovirus infection; technique = Env pseudovirus neutralisation; strain = clade A; value = 3820 nM
organism = Human immunodeficiency virus 1; read-out = viral infection; technique = Env pseudovirus; strain = 1054_07_TC4_1499 clade B T/F; value = 104 nM

Mixed results
ALB: Albumin (ALB, Bos taurus, UniProt P02769)
Chain of UniProt P02769 (whole entry, looked up): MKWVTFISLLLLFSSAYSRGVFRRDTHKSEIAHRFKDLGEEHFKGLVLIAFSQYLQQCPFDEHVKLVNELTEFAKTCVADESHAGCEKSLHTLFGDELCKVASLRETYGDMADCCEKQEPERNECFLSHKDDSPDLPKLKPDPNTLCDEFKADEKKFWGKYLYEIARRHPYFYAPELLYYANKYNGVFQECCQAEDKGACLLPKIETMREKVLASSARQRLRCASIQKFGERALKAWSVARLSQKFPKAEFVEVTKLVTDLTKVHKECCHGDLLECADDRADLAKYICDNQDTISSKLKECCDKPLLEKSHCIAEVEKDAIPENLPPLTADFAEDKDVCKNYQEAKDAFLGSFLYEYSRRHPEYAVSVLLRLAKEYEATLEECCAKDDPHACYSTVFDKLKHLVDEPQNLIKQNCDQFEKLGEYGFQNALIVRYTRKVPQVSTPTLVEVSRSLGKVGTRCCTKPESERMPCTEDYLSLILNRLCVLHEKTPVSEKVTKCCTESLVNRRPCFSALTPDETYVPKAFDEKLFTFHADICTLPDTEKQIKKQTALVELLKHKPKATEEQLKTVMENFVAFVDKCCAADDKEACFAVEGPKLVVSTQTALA
Compound = CC(C)C[C@H](NC(=O)OCc1ccccc1)C(=O)N[C@@H](C[C@@H]1CCNC1=O)C(O)S(=O)(=O)[O-].[Na+] (some centres unmarked); tested on = Replicase polyprotein 1ab, main protease (rep, Porcine epidemic diarrhea virus, UniProt P0C6Y4); assay = enzyme activity, inhibitor, FRET; setting = 10 µM; endpoint = inhibition; value = 135%
Compound = CN1CCN(c2ccc3[nH]c(-c4ccc5[nH]c(-c6ccc(OCCCCNC(=O)c7cccc8c7C(=O)OC87c8ccc(N(C)C)cc8C(C)(C)c8cc(N(C)C)ccc87)cc6)nc5c4)nc3c2)CC1; tested on = ALB; system = PBS; setting = 1 µM, 1 h, with: 25 mg/mL albumin; endpoint = fluorescence quantum yield; value = 0.21 ± 0.006
Compound = C[C@H](Nc1ncnc(N)c1C#N)c1c(-c2ccccc2)[nH]c2c(Cl)cccc2c1=O; system = CB17 SCID mice, xenograft, plasma; setting = oral, 200 mg/kg once daily, day 14; endpoint = AUC(0-t); value = 494 ± 76.2 µg·h/mL
Compound = CC(=O)NCCN(CCC(=O)NCCN(CCC(=O)NCCN(CCC(=O)NCCC(N)=O)C(=O)[C@@H](N)CCCNC(=N)N)C(=O)[C@@H](N)CCCNC(=N)N)C(=O)[C@@H](N)Cc1ccccc1; tested on = HIV-1 TAR RNA; setting = concentration not given, 25 °C; endpoint = binding entropy term TΔS°; value = -4.02 ± 0.12 kcal/mol
Compound = CN1CCN(c2ccc3[nH]c(-c4ccc5[nH]c(-c6ccc(OCCCCNC(=O)c7ccc8c(c7)C(=O)OC87c8ccc(N(C)C)cc8C(C)(C)c8cc(N(C)C)ccc87)cc6)nc5c4)nc3c2)CC1; tested on = ALB; system = PBS; setting = 1 µM, 1 h, with: 25 mg/mL albumin; endpoint = fluorescence quantum yield; value = 0.106 ± 0.003
Compound = F[P-](F)(F)(F)(F)F.OC(Cn1cncn1)(Cn1cc(-[c-]2cccc2)nn1)c1ccc(F)cc1F.[Co+3].c1cc[cH-]c1 (racemic); tested on = Trichuris muris; assay = Worminator; system = adult males and females; setting = 100 µM, day 2; endpoint = motility inhibition; value = 28%
